# Assay results from different studies.
# Each numbered part is a random draw from the data of one study; scales do not carry over between parts. Substitutions count along the parent as printed.

# Set 1 — target: CEP164, C-terminal peptide (human); technique: DHFR complementation, deep sequencing; sample: yeast; reference: wild type; direction: higher = weaker binding
# Notes: single substitutions, model-inferred values
# Starting sequence: PDZK1, PDZ domain 2 (human); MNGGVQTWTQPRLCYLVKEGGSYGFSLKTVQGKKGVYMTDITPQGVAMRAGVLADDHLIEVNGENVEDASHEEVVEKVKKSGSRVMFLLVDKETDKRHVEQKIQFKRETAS; partner HNRVKVYRF
Substitution,binding free energy change
E72M,0.488 kcal/mol
G24S,1.5 kcal/mol
Q31M,-0.122 kcal/mol
P43L,0.512 kcal/mol
S111T,-0.0688 kcal/mol
G20S,0.148 kcal/mol
N2Q,-0.0801 kcal/mol
L53S,0.34 kcal/mol

# Set 2 — technique: RNA Bind-n-Seq; form: RNA; sample: in vitro; concentration: not given; notes: RNA with constant flanks, ends assumed; reference: input RNA pool; direction: higher = stronger binding
# Target: RING finger protein unkempt homolog, zinc fingers 1-6, GST-SBP tag (UNK, Homo sapiens, UniProt Q9C0B0, residues 30-357)
# All sequences stand within: GGGAGUUCUACAGUCCGACGAUC … CAACAGAGGAUUGAGCAUCA
# Construct (chain): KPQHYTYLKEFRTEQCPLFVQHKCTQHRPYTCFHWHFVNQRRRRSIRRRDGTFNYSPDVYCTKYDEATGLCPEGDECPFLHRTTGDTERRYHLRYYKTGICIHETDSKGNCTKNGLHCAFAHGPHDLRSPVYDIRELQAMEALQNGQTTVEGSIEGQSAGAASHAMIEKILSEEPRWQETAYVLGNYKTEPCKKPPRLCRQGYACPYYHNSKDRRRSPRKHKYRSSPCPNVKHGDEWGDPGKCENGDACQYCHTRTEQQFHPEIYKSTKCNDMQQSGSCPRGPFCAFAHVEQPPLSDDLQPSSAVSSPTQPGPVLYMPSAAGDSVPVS
Sequence,bound/input enrichment
GAGGACACUGGACUAAAUGAUUGCCCAGUUUCCAGCUAGUCCUAGAGUUCUAUAUUUCUACACCGUUGAAUUAUUUUAUCAUGCGGUUGCUGGGGAAUACAACUAACACUUUUGAAGCUA,1.26 ratio
UAGCAUGGAUUCUUUUUCCAUUUAUUGAAUGUGAGGGAUUUCGAUUGUUUCCAGUUCUUUCCGUUCAGUUUGUAUUGAAUACAUAUAACAAUGUGGUUUCUUACUGUUGGUGAUGGGUCA,0.506 ratio
AAUUAUUUUUCCUUGCUCAUGGGCUGGAUGGGAAUUAUCCCUCCUCCGGUGCAGUGUCAUCACCGACUAUCCAUGACAGAUGAUAGCAAGAAGCAAGAUCUUAGUUCAUCAUUGACAGAU,0.201 ratio
UUACAGUCAUUGAUGGACUCUAUUUUUUUAUUAUUACUUGGACCUUGGUCGUUUUUAUACCCGCAAAAAAAUGUCUUGUUUUAAUUUGUGUUUUUUGGGGGGGCGGGUGGGCGGGCGGGA,1.32 ratio
GGAGGAGGGAUACGUUUCCACGAUAACUUCGGCUUUGAUGACCUAGUACGAGAUUUCAACCGCAUCUUCAGCGAUAUGGGGGCCUGGACCUUGCCUUCCCAUCCUCCUGAACUUCCAGGU,0.229 ratio
AAGCCAUUCCCAGAGCAUCUCUACCAGCGUGUCAGGAUCAGAAGCAAGGUUUUCGGGUUGCACCGUGUUUCCAGGGGCAUGUACGAUGGGCCUGUGUACGAGGUGCCAGCUACACCCAAA,0.102 ratio
AAAGUAUUGGGCACUAGGAAAUUGAUGCAUGUUGCUUAUGAAGAAUUUGAAAAAGUUAUGGCCGCAUGCUUUGAAGUUUUUCAGACUUGGGAUGAUGAGUAUGAGAAACUUCAGGUAUUG,1.17 ratio
CUUCUACCGGGCGCCCCACGGGCCGAAGCCGCUCCAGUGUGCUGCUCUGCUCGUUACAACUCCGCAAUUUUGGCCUUUUUUGGUUUCUUCAUUGUGUAUGCAUUACGUGUGAAUCUGAGU,0.0948 ratio

# Set 3 — technique: universal PBM; form: double-stranded DNA, one strand shown; sample: in vitro; concentration: 600 nM; direction: higher = stronger binding
# Target: Sal-like protein 4, full length isoform A (SALL4, Homo sapiens, UniProt Q9UJQ4, residues 1-1053)
# Chain of UniProt Q9UJQ4 (whole entry, looked up): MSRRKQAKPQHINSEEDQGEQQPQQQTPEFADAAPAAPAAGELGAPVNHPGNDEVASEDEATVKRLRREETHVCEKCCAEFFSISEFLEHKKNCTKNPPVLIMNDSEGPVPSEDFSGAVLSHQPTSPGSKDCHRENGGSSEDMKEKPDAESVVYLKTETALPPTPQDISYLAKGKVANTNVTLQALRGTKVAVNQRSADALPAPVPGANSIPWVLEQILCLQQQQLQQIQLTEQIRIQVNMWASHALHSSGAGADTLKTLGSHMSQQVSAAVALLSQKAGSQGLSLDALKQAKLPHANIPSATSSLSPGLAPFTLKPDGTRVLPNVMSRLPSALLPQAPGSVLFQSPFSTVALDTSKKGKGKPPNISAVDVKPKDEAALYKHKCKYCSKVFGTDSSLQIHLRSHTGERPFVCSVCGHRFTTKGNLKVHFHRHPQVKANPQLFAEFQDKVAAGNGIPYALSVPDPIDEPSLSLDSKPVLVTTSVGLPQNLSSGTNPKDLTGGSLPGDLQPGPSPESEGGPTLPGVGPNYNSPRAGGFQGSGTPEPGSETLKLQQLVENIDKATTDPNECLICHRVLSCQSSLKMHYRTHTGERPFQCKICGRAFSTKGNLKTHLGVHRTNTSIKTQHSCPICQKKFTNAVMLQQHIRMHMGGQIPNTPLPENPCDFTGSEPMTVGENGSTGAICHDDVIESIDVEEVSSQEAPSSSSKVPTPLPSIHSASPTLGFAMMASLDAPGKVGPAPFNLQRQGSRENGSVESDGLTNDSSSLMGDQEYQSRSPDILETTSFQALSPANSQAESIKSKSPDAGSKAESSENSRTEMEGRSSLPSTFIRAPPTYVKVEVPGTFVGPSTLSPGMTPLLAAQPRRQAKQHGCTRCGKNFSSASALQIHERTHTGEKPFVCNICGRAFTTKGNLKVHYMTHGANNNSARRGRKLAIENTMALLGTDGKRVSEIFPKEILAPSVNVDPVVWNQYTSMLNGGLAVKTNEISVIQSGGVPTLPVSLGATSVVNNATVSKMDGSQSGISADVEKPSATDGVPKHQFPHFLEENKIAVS
# Notes: 8-mer, flanks averaged, mean of replicates
Sequence,E-score
CTCTTGAC,-0.094
GCGGATCC,-0.401
CCGTGATA,0.047
GTTCTACA,0.0769
CTGGACAA,-0.048
ACTATTAA,0.341
ACTCCTCC,-0.0841
ACCCTAGA,-0.0711

# Single results of other studies
# Starting sequence: viral docking peptide; KGVKRKLFAEDSS; partner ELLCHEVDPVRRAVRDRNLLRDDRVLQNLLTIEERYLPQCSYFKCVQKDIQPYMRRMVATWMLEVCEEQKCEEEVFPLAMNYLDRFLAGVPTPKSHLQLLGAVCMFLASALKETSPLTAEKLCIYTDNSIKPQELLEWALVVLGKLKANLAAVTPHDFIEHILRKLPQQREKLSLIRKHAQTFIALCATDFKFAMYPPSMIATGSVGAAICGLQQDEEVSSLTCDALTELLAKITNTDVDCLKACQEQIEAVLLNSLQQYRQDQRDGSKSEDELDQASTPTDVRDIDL
Substitution,target,test,system,conditions,scale,endpoint,value
KGVKRKLFAGDSS [E10G],"CCND2, cyclin fold, Cln2 fusion (human)","yeast growth competition, sequencing",yeast,weak parent motif,"reference: not given, higher = stronger binding",normalised enrichment score,-0.047

# Some of these lines once more (set 1):
Substitution,binding free energy change
G20S,0.148 kcal/mol
S111T,-0.0688 kcal/mol
E72M,0.488 kcal/mol
